{"data": "Measurements from different studies", "cell line": "DU-145", "note": "Compare with care: the assays were run in different laboratories. Several values in a cell are separate wells, animals, samples, runs or records."}
{"SMILES": "CCn1cc(-c2cc(Cn3ccoc3=N)cc3c2CCN([C@@H](C)c2cc(OC)ccn2)C3=O)c(C(F)(F)F)n1", "assay": "cell growth, inhibitor", "conditions": "120 h", "quantity": "EC50", "result": "28.8 nM"}
{"SMILES": "CN1CCN(c2ccc3[nH]c(-c4ccc5[nH]c(-c6ccc(C(F)(F)F)cc6)nc5c4)nc3c2)CC1", "assay": "SRB", "conditions": "10 µM, 48 h", "quantity": "growth percent", "result": "59.1%"}
{"SMILES": "C#CCCCC[C@H](C)C[C@@H](C)C(=O)O", "assay": "cell growth, sulforhodamine B", "quantity": "IC50", "result": "108000 nM and 162000 nM and 98200 nM"}
{"SMILES": "C#C[C@@]1(O)[C@@H](CO)O[C@@H](n2cc(I)c3c(N)ncnc32)[C@@H]1O", "assay": "SRB", "conditions": "NCI-60 screen", "quantity": "TGI", "result": "> 100000 nM"}
{"SMILES": "S=C([S][Au-][P+](CCCCCC[P+]([Au-][S]C(=S)n1cccn1)(c1ccccc1)c1ccccc1)(c1ccccc1)c1ccccc1)n1cccn1", "assay": "cell growth, NCI-60 screen", "conditions": "prostate cancer", "quantity": "log10 TGI", "result": "> -4"}
{"SMILES": "O=C1NCCc2[nH]c(-c3ccncc3)cc21", "assay": "MTS", "system": "prostate cancer", "quantity": "IC50", "result": "2260 nM"}
{"SMILES": "O=c1ccn(Cc2cn(-c3cc4ccccc4oc3=O)nn2)c(=O)[nH]1", "assay": "NCI60 single-dose screen", "conditions": "10 µM", "quantity": "growth percentage", "result": "120%"}
{"SMILES": "COc1cnc2cccc(N3CCc4c(cc(Cn5ccnc5C)cc4-c4cn(C)nc4C(F)(F)F)C3=O)c2c1", "assay": "cell growth, inhibitor", "conditions": "120 h", "quantity": "EC50", "result": "41.6 nM"}
{"SMILES": "CC(O)[C@@H]1CCCN1C(=O)[C@@H]1CCCN1C(=O)OC(C)(C)C (mixture of isomers)", "assay": "cell growth, sulforhodamine B", "quantity": "IC50", "result": "2170 nM and 140 nM and 3110 nM"}
{"SMILES": "CCCCN1CCN(c2ccc3[nH]c(-c4ccc5[nH]c(-c6ccc(OCC)c(OCC)c6)nc5c4)nc3c2)CC1", "assay": "SRB", "conditions": "10 µM, 48 h", "quantity": "growth percent", "result": "-86.2%"}
{"SMILES": "O=C1NC(c2ccccc2)(c2ccccc2)C(=O)N1Cc1cn(-c2c3ccccc3nc3ccccc23)nn1", "assay": "NCI60 single-dose screen", "conditions": "10 µM", "quantity": "growth percentage", "result": "91.2%"}
{"SMILES": "CC(=O)[C@@H]1CCCN1C(=O)[C@@H]1CCCN1C(=O)OC(C)(C)C", "assay": "cell growth, sulforhodamine B", "quantity": "IC50", "result": "1180 nM and 1800 nM and 420 nM"}
{"SMILES": "CC(=O)O[C@H]1C(=O)[C@@]2(C)[C@H]([C@H](OC(=O)c3ccccc3)[C@]3(O)C[C@H](OC(=O)[C@H](O)[C@@H](NC(=O)c4ccccc4)c4ccccc4)C(C)=C1C3(C)C)[C@]1(OC(C)=O)CO[C@@H]1C[C@@H]2O", "assay": "sulforhodamine B", "system": "prostate cancer", "conditions": "NCI60 screen", "quantity": "TGI", "result": "160 nM"}
{"SMILES": "CCCN1CCN(c2ccc3nc(-c4ccc5nc(-c6cc(OC)ccc6OC)[nH]c5c4)[nH]c3c2)CC1", "assay": "SRB", "conditions": "10 µM, 48 h", "quantity": "growth percent", "result": "114%"}
{"SMILES": "O=C(Nc1nnc2[nH]c(=S)[nH]c(-c3ccc(Cl)cc3)c1-2)c1ccccc1", "assay": "SRB", "conditions": "10 µM, NCI60 single-dose screen, prostate cancer", "how to read": "relative to: untreated", "quantity": "cell growth", "result": "100%"}
{"SMILES": "COc1cccc2c1C(=O)c1c(O)c3c(c(O)c1C2=O)C[C@@](O)(C(=O)CO)C[C@@H]3O[C@H]1C[C@H](N)[C@H](O)[C@H](C)O1", "assay": "WST-1", "conditions": "concentration not given, 72 h, highest tested concentration", "quantity": "maximal cytotoxicity", "result": "86%"}
{"SMILES": "CSc1nc(-c2ccc(Cl)cc2)c2c(NC(=O)c3ccccc3)nnc-2[nH]1", "assay": "SRB", "conditions": "10 µM, NCI60 single-dose screen, prostate cancer", "how to read": "relative to: untreated", "quantity": "cell growth", "result": "106%"}
{"SMILES": "CCCCN1CCN(c2ccc3[nH]c(-c4ccc5[nH]c(-c6ccc(OCC)cc6)nc5c4)nc3c2)CC1", "assay": "SRB", "conditions": "10 µM, 48 h", "quantity": "growth percent", "result": "68.7%"}
{"SMILES": "Cc1cc(=O)[nH]c(=O)n1Cc1cn(-c2c3ccccc3nc3ccccc23)nn1", "assay": "NCI60 single-dose screen", "conditions": "10 µM", "quantity": "growth percentage", "result": "15.7%"}
{"SMILES": "O=C(Nc1nnc2n3c(nc(-c4ccc(Cl)cc4)c1-2)SCC3=O)c1ccccc1", "assay": "SRB", "conditions": "10 µM, NCI60 single-dose screen, prostate cancer", "how to read": "relative to: untreated", "quantity": "cell growth", "result": "101%"}
{"SMILES": "C#C[C@@]1(O)[C@@H](CO)O[C@@H](n2cc(F)c3c(N)ncnc32)[C@@H]1O", "assay": "SRB", "conditions": "NCI-60 screen", "quantity": "TGI", "result": "13400 nM"}
{"SMILES": "Cn1cncc1C1=CN(c2ncnc3[nH]cnc23)CCS1", "conditions": "prostate cancer", "quantity": "TGI", "result": "> 200000 nM"}
{"SMILES": "CCOc1ccc(-c2nc3cc(-c4nc5cc(N6CCN(C)CC6)ccc5[nH]4)ccc3[nH]2)cc1OCC", "assay": "SRB", "conditions": "10 µM, 48 h", "quantity": "growth percent", "result": "11.1%"}
{"SMILES": "O=C(Nc1nnc2n3c(Cc4ccccc4)n[nH]c3nc(-c3ccc(Cl)cc3)c1-2)c1ccccc1", "assay": "SRB", "conditions": "10 µM, NCI60 single-dose screen, prostate cancer", "how to read": "relative to: untreated", "quantity": "cell growth", "result": "103%"}
{"SMILES": "COc1ccc(OC)c(-c2nc3ccc(-c4nc5ccc(N6CCN(C)CC6)cc5[nH]4)cc3[nH]2)c1", "assay": "SRB", "conditions": "10 µM, 48 h", "quantity": "growth percent", "result": "108%"}
{"SMILES": "Cc1cc(C)n(-c2nc(-c3ccc(Cl)cc3)c3c(NC(=O)c4ccccc4)nnc-3[nH]2)n1", "assay": "SRB", "conditions": "10 µM, NCI60 single-dose screen, prostate cancer", "how to read": "relative to: untreated", "quantity": "cell growth", "result": "106%"}
{"SMILES": "O=C1NC(c2ccccc2)(c2ccccc2)C(=O)N1Cc1cn(-c2cc3ccccc3oc2=O)nn1", "assay": "NCI60 single-dose screen", "conditions": "10 µM", "quantity": "growth percentage", "result": "98.9%"}
{"note": "Repeated from above:"}
{"SMILES": "CCCN1CCN(c2ccc3nc(-c4ccc5nc(-c6cc(OC)ccc6OC)[nH]c5c4)[nH]c3c2)CC1", "assay": "SRB", "conditions": "10 µM, 48 h", "quantity": "growth percent", "result": "114%"}
{"SMILES": "O=C(Nc1nnc2[nH]c(=S)[nH]c(-c3ccc(Cl)cc3)c1-2)c1ccccc1", "assay": "SRB", "conditions": "10 µM, NCI60 single-dose screen, prostate cancer", "how to read": "relative to: untreated", "quantity": "cell growth", "result": "100%"}
